Published values from different studies.
Numbered parts are unrelated; each lists some results of a single study. Changes are numbered by the printed parent chain.

Study 1
Target: Histone acetyltransferase KAT6A, winged helix 2, GST fusion (KAT6A, Homo sapiens, UniProt Q92794, residues 85-181)
Technique: protein binding microarray
Molecule type: double-stranded DNA, one strand shown
Sample: in vitro
Tested at: not given
Setting: 8-mer, flanks averaged, mean of 2 arrays, mostly near background
Reference: not given
Reading: higher = stronger binding
Target sequence (chain): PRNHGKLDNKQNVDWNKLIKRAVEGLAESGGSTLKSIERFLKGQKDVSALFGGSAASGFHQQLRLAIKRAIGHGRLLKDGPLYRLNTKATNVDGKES
Sequence	E-score
AACGGAGG	0.0488
TAAATACA	-0.0165
TAAAGGTA	-0.0935
AACTACCA	-0.161
AGGGAAAA	0.0184
AGAAATAA	0.0577
TTTCAAAA	0.197
TCCCCTAA	-0.0115
CCAGATCC	0.0978
AAGACCGG	-0.0973
CAGATTGC	0.1
CCGCCACA	0.0387
AGGTGCTA	-0.0121
CCTCTTCC	-0.122
GGCCAGCC	0.137
ATGTGCCA	-0.0441
AGTTGTCA	0.14
ACCTAACT	0.0744
AGATCTGA	-0.137
AGACCGAG	0.0278
CTTTCGTC	0.0384
AAGTCAGG	0.0754
ACATTGGA	-0.161
GCGTAGAC	-0.122
ATACCAGG	-0.0497

Study 2
Target: RING finger protein unkempt homolog, zinc fingers 1-6, GST-SBP tag (UNK, Homo sapiens, UniProt Q9C0B0, residues 30-357)
Sequence of UniProt Q9C0B0 (30-357, looked up): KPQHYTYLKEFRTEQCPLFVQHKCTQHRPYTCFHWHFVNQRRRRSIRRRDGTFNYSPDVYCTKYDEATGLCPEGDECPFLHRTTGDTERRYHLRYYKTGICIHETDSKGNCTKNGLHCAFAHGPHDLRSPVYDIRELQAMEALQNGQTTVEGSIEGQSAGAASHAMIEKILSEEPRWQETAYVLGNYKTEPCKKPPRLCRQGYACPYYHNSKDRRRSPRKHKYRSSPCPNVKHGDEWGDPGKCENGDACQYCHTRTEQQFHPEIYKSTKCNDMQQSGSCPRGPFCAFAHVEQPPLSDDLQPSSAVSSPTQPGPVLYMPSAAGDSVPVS
Technique: RNA Bind-n-Seq
Molecule type: RNA
Sample: in vitro
Tested at: not given
Setting: RNA with constant flanks, human and mouse sites, ends assumed
Reference: input RNA pool
Reading: higher = stronger binding
Constant ends, left off below: GGGAGUUCUACAGUCCGACGAUC … CAACAGAGGAUUGAGCAUCA
Sequence	bound/input enrichment [ratio]
UUUGCUCGACACACGGCUCUCAAGCCCCACGCAUGUCCUCGAUGCGGUAAGGGCUUCAAGCAUAGCUUCAACUUGGCUAACCACCUGCGCUCACACACUGGUGAACGACCCUACCGAUGC	0.231
UCAAAAAAAAGUGUAUUUCAGACUUGGUAUUCCUACUGUGGGGUGUGGUUUUCCUUUGUUUUUAGUAGCAAAUUUGGAUGUAGACUGACAGACAUAGCUGAAUGUCUUAAUAAAUUUAAA	1.12
UCUGUGUUUAUCAUUUUCUUCCAAGGCGAUCAGCUGAAAAACAGAGUCAAGAAAAUCUGUGAAGGGUUCCGAGCCUCACUCUAUCCCUGUCCUGAGACACCACAGGAGAGGAAGGAAAUG	0.146
AAUGUAGUGUUUUUCCUUUAUAACAUACUUCAGUGACUAAAACUGCUGGCAGCAGUUAAGUUAGUGGGCUUUCUGACUGCAGAUAGGAUUAUUCAUUAAAAAUGUCUGUGUGAUGCUGUA	2.27
GGACUAGAACACGUUACUGUUGAUGACUUGGUGGCUGAAAUCACUCCAAAAGGCAGAGCCCUGGUACCUGACAGUGUAAAGAAGGAGCUCCUACAGAGAAUAAGAACAUUCCUUGCUCAG	0.109
ACAGGGUCAGAUGAUUACACAAAUUUGGUUGGAGCAUUUGUAUGCCAGUCAACUAUUAUUCCUUCUGAAAGUAAGGGCUUCCGGGCAGCCCUGUCGUCACAGUCUAUCAUUCUGGCAGAU	0.248
CUUUUUAAGAAGAUAUGUGAUGGGAUCUUUUAUACCCCUCAGUACUUAAACCCUUCAGUAAUCAGCCUUUUGAAACAUAUGCUGCAGGUGGAUCCCAUGAAGAGGGCCGCAAUAAAAGAU	0.224

Study 3
Target: CCNA1, cyclin fold, Cln2 fusion (human)
Technique: yeast growth competition, sequencing
Sample: yeast
Setting: weak parent motif
Reference: not given
Reading: higher = stronger binding
Starting sequence: SLBP docking peptide (human); ARYKRKLLINDFG
Change	normalised enrichment score
ARYKRKLLFNDFG [I9F]	0.193
ARYKRKLLITDFG [N10T]	0.322
ARYKRKLLICDFG [N10C]	0.193
ARYKRKLLINDFK [G13K]	0.602
ARYKRKLWINDFG [L8W]	0.519
ARYKRKLLINAFG [D11A]	0.552
ARYKRKLLINSFG [D11S]	0.179
ARYKRKLDINDFG [L8D]	0.0673
ARYKRKLLINDLG [F12L]	0.251
ARYKRKLLINDFN [G13N]	0.346
ARYPRKLLINDFG [K4P]	0.284
ARYKRKLLINDAG [F12A]	0.0642
ARYKRKYLINDFG [L7Y]	0.492
ARYKRKLVINDFG [L8V]	0.415
ARYKRHLLINDFG [K6H]	-0.00448
ARYNRKLLINDFG [K4N]	0.363
AEYKRKLLINDFG [R2E]	0.462
ARYKRDLLINDFG [K6D]	0.224
ARYKRVLLINDFG [K6V]	0.608

Study 4
Target: PABPC1L2, full length, GST fusion (mouse, UniProt A0ABA7IW68)
Technique: RNAcompete
Molecule type: RNA
Sample: in vitro
Tested at: 20 nM
Setting: 7-mer, probes averaged, single round
Reference: mean of 7-mers
Reading: higher = stronger binding
Residues (chain): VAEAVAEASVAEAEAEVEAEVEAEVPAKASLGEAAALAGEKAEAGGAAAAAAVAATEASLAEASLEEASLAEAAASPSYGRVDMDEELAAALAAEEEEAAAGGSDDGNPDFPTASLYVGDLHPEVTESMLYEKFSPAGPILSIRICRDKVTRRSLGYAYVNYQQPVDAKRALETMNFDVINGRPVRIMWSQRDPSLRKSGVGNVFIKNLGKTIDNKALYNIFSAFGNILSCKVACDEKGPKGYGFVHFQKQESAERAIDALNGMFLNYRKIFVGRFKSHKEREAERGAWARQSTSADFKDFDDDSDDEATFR
Sequence	7-mer Z-score
GCCGCAA	-0.0718
GCUGUGA	-0.146
GGCCCCA	-0.364
CGGUCUU	-0.257
AAUUAAC	0.0932
AGCGACU	-0.0645
UGAUUGC	-0.177
UCUCAGU	-0.315
AGUACUU	-0.228
CCCAAAA	5.13
ACAUGCA	0.191
CAGUCGU	-0.458
CGCCGUA	-0.325
CUCAAGG	-0.104
UCAAAAA	16.4
UCCGGGA	-0.0355
CAUGACC	0.00254
CGAUGAC	-0.148
ACGUAGC	-0.204
UUGGCCG	-0.235
UGAGUUG	-0.324
UACCAUC	-0.347
AUAGUGU	-0.186
GGCGAAC	0.3
UAUAGAU	-0.22

Study 5
Target: Ras GTPase-activating protein-binding protein 1, full length (G3BP1, Homo sapiens, UniProt Q13283)
Sequence of UniProt Q13283 (whole entry, looked up): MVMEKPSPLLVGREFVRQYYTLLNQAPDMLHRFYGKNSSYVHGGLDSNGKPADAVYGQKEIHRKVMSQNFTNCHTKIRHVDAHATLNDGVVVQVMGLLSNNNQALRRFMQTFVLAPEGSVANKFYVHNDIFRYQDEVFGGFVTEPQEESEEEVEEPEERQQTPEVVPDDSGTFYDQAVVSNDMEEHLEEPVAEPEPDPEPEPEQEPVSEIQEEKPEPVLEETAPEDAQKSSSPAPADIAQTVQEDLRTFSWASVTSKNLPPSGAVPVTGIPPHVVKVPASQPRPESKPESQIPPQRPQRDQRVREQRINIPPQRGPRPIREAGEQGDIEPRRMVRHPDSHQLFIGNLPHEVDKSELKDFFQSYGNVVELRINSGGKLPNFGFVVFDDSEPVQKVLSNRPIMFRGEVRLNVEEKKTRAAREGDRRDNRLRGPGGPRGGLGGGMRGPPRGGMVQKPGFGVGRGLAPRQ
Technique: RNA Bind-n-Seq
Molecule type: RNA
Sample: in vitro
Tested at: 200 nM
Setting: whole 134-nt RNA, ends assumed
Added: 150 mM KCl
Reference: input library
Reading: higher = stronger binding
Constant ends, left off below: GGGAGUUCUACAGUCCGACGAUC … UGGAAUUCUCGGGUGUCAAGG
Sequence	log2 enrichment
CAAGUCCUGUGCUACACAUCGUAUGUACCGAAUCGGGUGGGUUUUUGGGUUUGGGAAAGUAUUAUGUUACGCCGUUCGGAUCUGCACUUC	0.238
CAAGUCCUGUGCUACACAUCGUAUGUACCGAAUCGGUUUUUUUGGUUUUUGGUGGAAAGUAUUAUGUUACGCCGUUCGGAUCUGCACUUC	-1
UGCUGGAGAUGCAAUAUAUGAGGUGGUGAGUCUACAGCGAGAGUCUGACAAGGAGGAACCAGUCACUCCUACUAGUGGAGGGGGUCCAAU	-1.81
GUCCUGUGCUACACAUCGUAUGUACCGAAUCGGUUUUUGGUUUUUGGGGUUUUUGGGGAAAGUAUUAUGUUACGCCGUUCGGAUCUGCAC	-0.713
CCUCAAGUCCUGUGCUACACAUCGUAUGUACCGAAUCGGGAGGGAGGAGGGGAAAGUAUUAUGUUACGCCGUUCGGAUCUGCACUUCCAG	1.46
UUCCUCAAGUCCUGUGCUACACAUCGUAUGUACCGAAUCGGUGGAGGAGGAAAGUAUUAUGUUACGCCGUUCGGAUCUGCACUUCCAGCA	-0.987
AAGUCCUGUGCUACACAUCGUAUGUACCGAAUCGGGCCCCGGGGCCCCGGCCCCGGGAAAGUAUUAUGUUACGCCGUUCGGAUCUGCACU	-0.792
AGUCCUGUGCUACACAUCGUAUGUACCGAAUCAAAUUUUUUUAAACCCAAAUUUAAAAAAGUAUUAUGUUACGCCGUUCGGAUCUGCACU	-1.05
CAAGUCCUGUGCUACACAUCGUAUGUACCGAAUCGGGAAAAAAAGGGUGGGUGGGAAAGUAUUAUGUUACGCCGUUCGGAUCUGCACUUC	0.547
AGUCCUGUGCUACACAUCGUAUGUACCGAAUCGGGAAAGGGAAAAAAAGGGUUUGGGAAAGUAUUAUGUUACGCCGUUCGGAUCUGCACU	-0.226
GUCCUGUGCUACACAUCGUAUGUACCGAAUCGGGGAAAAAGGGGUUUUUGGGGAGGGGAAAGUAUUAUGUUACGCCGUUCGGAUCUGCAC	0.439
AGUCCUGUGCUACACAUCGUAUGUACCGAAUCGGAAAAAAAGGUUUUUUUGGUUUGGAAAGUAUUAUGUUACGCCGUUCGGAUCUGCACU	-1.73
CACAGACAACACGCACCGACACAGACACAGAGGGAAGGGGUUGGGAUGGGGACAGGGUGCACAGCAGGGCGGGGUAGGACCCCAGCCCCU	1.65
CAAGUCCUGUGCUACACAUCGUAUGUACCGAAUCGGGGCCGGGCCGGGGCCGGGGAAAGUAUUAUGUUACGCCGUUCGGAUCUGCACUUC	0.0325

Study 6
Target: RNA binding protein fox-1 homolog 2, RRM domain, GST-SBP tag (RBFOX2, Homo sapiens, UniProt O43251-10, residues 100-194)
Technique: RNA Bind-n-Seq
Molecule type: RNA
Sample: in vitro
Tested at: 365 nM
Setting: natural RNA segment, single round, ends assumed
Reference: no-protein control
Reading: higher = stronger binding
Constant ends, left off below: GGGAGUUCUACAGUCCGACGAUC … UGGAAUUCUCGGGUGCCAA
Residues (chain): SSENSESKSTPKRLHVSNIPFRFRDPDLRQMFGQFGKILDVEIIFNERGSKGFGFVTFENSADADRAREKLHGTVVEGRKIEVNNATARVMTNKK
Sequence	RBNS enrichment (R)
CACACACCUGUAUCCCUGGUAUCUAAGGCCUGUCCUCUAGUGCGAUUGUCAUCUCCAGGACUAUGAAAGAGGGAGGGUGGCGGUGUCUCUGUCUGCAAACAGUGUCAGGA	0.535
CUUAAAGCAGCAUACUUAUUUUUUGUUUAUUUAUUGUGAGCUUUUUACUUUAUUAAGAUUUUACAGCGAAACCCUUACAUGAGUAAUUGAAAUGAAAUUAAAUGAGAUUA	0.843
CACCAUUCAGGAACCUGGACCAAAGCUGACGAGGCUGGGCCAAGCCAGGGAUGGGGCCACAGCCAGAACCCCGAGCCCUACUUCCAGGUUCUGGUUAGCUCAGCCCCAGC	0.332
AUUCUUUUGUGUCUGACACUUGUGGUGAGUUGCUUUUGAAAUCUGUUGAGAUUUCCAUGUGAGAACUGAUAAUCAGGCUCUUGAUCUGCUUCCCUAAAUUACUUUUUUAG	0.465
CAACCAAGAUCUGCCUGACUAAAAGAAGCCACCUCAGCGCAGUGGAACGGGGCCCAGGGGGAGGCAGGAGAGGAGGGUUCCGGUCCCAUGUCACCUUCUCAUUUGCUGUG	0.771
UGGGCCUAAGCCUUUCUGCAUUACACUUGAAGCCUUCAGUCAUUUCCUACCACUUAUUACAACAGUGAGGACUGGAUUCUUGAUGUCUUAAUUUCUCAUUUAUUUGUCUA	0.499
GGAUCUCCCUUCCUUGAGGAUGUUCUUGGCAUGGUCCUGCCCUACCUCAUGGGAUGGGCAAUGCACACACUGGCCCUUAUUUUUCCCUUUCAAAUAAAACACCAGUCAGG	1.01
GUGUACUGUUGAAAGCAUUGUUCUUCAGGGCCCUUGUCCAACAGUGGCCCGUGCAGUCUGGGGUCCACAGCUCUUCCUCUCCUUCCUGUGCUCCCUGCCUUGCCUAGGAU	0.807
CUUGUCACAGCUUCGUGGUGACCGUCCAUCCCUGGGCAGCAACAAAGAGAACUCCAGGCUCAGCAUUCUGUUGAGUAACUUGCUACCUGCUCGGCUUUCCACUCUGCCAG	0.265
AGCCUUAUUUGAAUGGAUCUUUGAGUUGAGAUCUUCACACUGUCAGUGAGCCCUUGGCUCAGCCCUUGUCACCUGUUUGUAUGGGGACCAUGUUUCCCAAAGCUCAGGUU	0.344
CGUGAUUCUUACUCGGCAUCCUCCAUUCCCCAAACUCCCUCCUCCCUGUUAAAUGUCAACCUAGACCUGGACCUGGGUGGGAGGAAACUGUAGCCUGAGUGUCCACAGGG	0.318
AGCCAGAGCAGAGAGGGCUGCUGACUUCCGUGUGGAGCAGAGAGGCCUGAGGGCCUCCUAAAAGGUUUAAAUGUCCACGCCUCUCCAGUUGCUGAAGUAGGGUCUGAGAG	0.801

Some of these lines once more (study 3):
Change	normalised enrichment score
ARYKRKLLINDFK [G13K]	0.602
ARYKRKLWINDFG [L8W]	0.519
ARYKRKLLINAFG [D11A]	0.552
ARYKRKLLINSFG [D11S]	0.179
ARYKRKLDINDFG [L8D]	0.0673
ARYKRKLLINDLG [F12L]	0.251
ARYKRKLLINDFN [G13N]	0.346
